Experimental data from different studies.
Lines come from different studies, so protocols differ. Several values in a cell are separate wells, animals, samples, runs or records.
Target: Delta-type opioid receptor (OPRD1, Homo sapiens, UniProt P41143)
Chain of UniProt P41143 (whole entry, looked up): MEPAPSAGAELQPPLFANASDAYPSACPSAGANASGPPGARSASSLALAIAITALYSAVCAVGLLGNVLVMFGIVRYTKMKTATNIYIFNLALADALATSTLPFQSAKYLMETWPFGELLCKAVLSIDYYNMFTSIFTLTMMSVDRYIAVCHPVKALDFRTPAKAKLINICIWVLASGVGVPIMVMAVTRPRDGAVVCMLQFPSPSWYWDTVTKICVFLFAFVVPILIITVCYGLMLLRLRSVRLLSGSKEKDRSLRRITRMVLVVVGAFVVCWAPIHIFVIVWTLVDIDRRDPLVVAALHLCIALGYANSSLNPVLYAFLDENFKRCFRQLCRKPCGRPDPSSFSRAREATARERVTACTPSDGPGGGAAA

O=C(Cc1ccc(Cl)c(Cl)c1)N1CCNC2COCC(N3CCCC3)C21 (centres unmarked)
inhibition (binding; up to 20 µM, with: [3H]DPDPE): ≤ 50%

CCc1nnc(-c2c(OC)cc(-c3cnc4cc(-c5cnn(C)c5)ccn34)cc2OC)o1
inhibition (specific binding, agonist, radioligand binding; 10 µM; relative to: control specific binding): 6%

CN1CC[C@]23c4c5ccc(O)c4C[C@H]2[C@@H](O)C=C[C@H]3[C@H]1C5
Emax (receptor activation, agonist, cell-based): < 10%

C[C@H](NCc1ccc(-c2ccc(C(F)(F)F)cc2)cc1)C(N)=O
inhibition (radioligand binding, SafetyScreen panel; 1 µM, species human, with: 1.30 nM [3H]Naltrindole): 7%

CN(C)[C@H](CNC(=O)/C=C/c1cccc2ccccc12)Cc1ccc(O)cc1
selectivity ratio (relative to: delta over mu receptor): 12

C/C(=N\OCCCN1CCCCC1)c1ccc(C(F)(F)F)cc1
activation (agonist, cAMP; 10 µM): -2.45%

Cc1cc(-c2ccc3ccccc3c2)nnc1NCCN1CCN(C)CC1
activity (antagonist; 10000 nM; relative to: control): 0%

Cc1sc2c(c1C)C(c1ccc(Cl)cc1)=NC(CC(=O)OC(C)(C)C)c1nnc(C)n1-2 (centres unmarked)
remaining binding (ligand displacement, radioligand; 1 µM): 106%

CN[C@@H]1[C@H](O)[C@H](NC)[C@H]2O[C@]3(O)[C@H](O[C@@H]2[C@H]1O)O[C@H](C)C[C@H]3NC(=O)Cc1ccc(Cl)cn1
inhibition (ligand displacement, radioligand; 10 µM): 12%

O=C(O)c1ccc(-c2nc(-c3ccccc3Cl)c3sccn23)cc1
binding vs control (ligand displacement; 10 µM): 19.4% and 16.5%

Cc1cc(Nc2nc(C[C@@]3(C(=O)O)CCN(Cc4cccc(Cl)c4F)[C@H](C)C3)cc(C)c2F)[nH]n1
activation (agonist; 10 µM): -0.33%

Repeated from above:
Cc1cc(-c2ccc3ccccc3c2)nnc1NCCN1CCN(C)CC1
activity (antagonist; 10000 nM; relative to: control): 0%
